Results from different studies.
Each line is one published result; not all experiments were run side by side. “And” joins repeats or separate records; there may be more than shown. ± gives the spread as reported.
Target: Cytochrome P450 2C9 (CYP2C9, Homo sapiens, UniProt P11712)
Chain of UniProt P11712 (whole entry, looked up): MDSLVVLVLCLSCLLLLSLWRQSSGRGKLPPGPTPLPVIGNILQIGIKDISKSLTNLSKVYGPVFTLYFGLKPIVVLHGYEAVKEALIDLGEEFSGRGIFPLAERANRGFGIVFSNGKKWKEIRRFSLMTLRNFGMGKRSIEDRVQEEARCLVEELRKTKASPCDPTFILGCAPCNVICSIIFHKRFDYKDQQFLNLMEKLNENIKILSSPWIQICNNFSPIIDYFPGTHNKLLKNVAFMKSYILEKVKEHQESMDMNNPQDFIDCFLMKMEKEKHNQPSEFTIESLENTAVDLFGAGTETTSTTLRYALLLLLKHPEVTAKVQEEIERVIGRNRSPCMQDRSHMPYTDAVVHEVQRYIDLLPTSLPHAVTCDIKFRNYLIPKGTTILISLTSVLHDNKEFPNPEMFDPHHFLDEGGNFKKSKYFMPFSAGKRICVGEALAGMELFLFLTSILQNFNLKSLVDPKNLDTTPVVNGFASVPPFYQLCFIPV

`N#Cc1ccc(Nc2nc(N)cc(Oc3c(F)cc(-c4ccc(C#N)cc4)cc3F)n2)cc1` gave an IC50 of 14.6 ± 2.7 µM (human liver microsomes; added: diclofenac 50 µM).
`CCC(C)(C)C(=O)O[C@H]1C[C@@H](C)C=C2C=C[C@H](C)[C@H](CC[C@@H](O)C[C@@H](O)CC(=O)O)[C@H]21` gave an IC50 of 96.6 µM (enzyme activity, inhibitor; added: MFC substrate).
`COc1cc(O)c(CC=C(C)C)c2c1C(=O)CC(c1ccc(O)cc1)O2` (stereo not drawn) has an IC50 of 2.1 ± 0.3 µM (enzyme activity, inhibitor; human liver microsomes; pH 7.4, added: tolbutamide).
The IC50 of `NC/C(=C\F)COc1cccc(Cn2c(=S)[nH]c(=O)c3[nH]cnc32)c1` is reported as over 10 µM (enzyme activity, inhibitor; CYP2C9 screen).
For `CC(C)=CCc1c(O)cc2c(c1O)C(=O)C[C@@H](c1ccc(O)cc1)O2`, the IC50 was 5.9 ± 0.7 µM (inhibitor; pH 7.4).
`Cc1nc(-c2cnc(NC(C)C)n(C)c2=O)ccc1Oc1ccnc(-c2cnn(C)c2)c1` gave an IC50 of 78 µM (direct inhibition, inhibitor; no preincubation).
The IC50 of `CCCCCNC(=N)N/N=C/c1c[nH]c2ccc(OC)cc12` is reported as 7.9 µM (enzyme activity, inhibitor; added: MFC substrate).
For `Cc1noc(C)c1-c1ccc2nc(-c3cnn(CC(C)(C)O)c3)nc(N3CCOC[C@@H]3c3ccccc3)c2c1`, the IC50 was 2.1 µM.
With `N#Cc1ccc([C@H]2CCc3cncn32)c(F)c1` the IC50 was ≥ 20 µM and 40 µM (inhibitor; pH 7.4).
For `Cc1cc(OC2COC2)cc(C(=O)Nc2ccc(F)cn2)n1`, the IC50 was over 30 µM (inhibitor).
`CSc1ccccc1C(=O)NCCn1cc(C(=O)NCc2cccc(C)n2)c(=O)c2cc3c(cc21)OCO3` has an IC50 of over 100 µM (enzyme activity, inhibitor; human liver microsomes; 20 min, 30 min NADPH preincubation, added: diclofenac 5 µM).
The IC50 of `Cc1cccnc1C(=O)Nc1ccc(N2C(=O)c3cccc(Cl)c3C2=O)c(Cl)c1` is reported as over 30 µM (enzyme activity, inhibitor; 2C9).
